# Experimental data from different studies.
# Each numbered part is a random draw from the data of one study; scales do not carry over between parts. Changes are numbered by the printed parent chain.

# Set 1
# Target: CCND3, cyclin fold, Cln2 fusion (human)
# Technique: yeast growth competition, sequencing
# Sample: yeast
# Setting: weak parent motif
# Reference: not given
# Reading: higher = stronger binding
# Parent: E2F2 docking peptide (human); LPAKRKLDLEGIG; partner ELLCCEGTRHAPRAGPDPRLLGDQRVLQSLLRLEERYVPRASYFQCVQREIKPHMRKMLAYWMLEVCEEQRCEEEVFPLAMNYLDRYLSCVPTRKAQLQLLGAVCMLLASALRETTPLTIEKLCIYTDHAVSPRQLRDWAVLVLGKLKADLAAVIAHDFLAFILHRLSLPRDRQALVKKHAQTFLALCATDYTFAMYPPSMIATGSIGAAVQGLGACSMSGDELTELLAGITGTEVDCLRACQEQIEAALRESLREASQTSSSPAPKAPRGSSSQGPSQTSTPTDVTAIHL
Change,normalised enrichment score
LPAKAKADLEGIG [R5A L7A],0.201
LPAKKKLDLEGIG [R5K],0.168
LPAKRALDLEGIG [K6A],0.0734
LPAKRKLDLEGAG [I12A],0.075
LPAKRKLDFEGIG [L9F],0.476
LPAARKLDLEGIG [K4A],0.227
LAAKRKLDLEGIG [P2A],0.0647
LPAKRKADLEGIG [L7A],0.0234
LPAKRKLDLEGIA [G13A],0.142

# Set 2
# Partner: ARF22 498-598 (Arabidopsis thaliana, UniProt Q9C8N7)
# Technique: two-hybrid
# Reference: out of 4 tests
# Reading: higher = firmer interaction
# B1: IAA15 (Arabidopsis thaliana, UniProt Q9C966); chain MSPEEYVRVWPDSGDLGGTELTLALPGTPTNASEGPKKFGNKRRFLETVDLKLGEAHENNYISSMVTNDQLVGWPPVATARKTVRRKYVKVALDGAAYLRKVDLGMYDCYGQLFTALENMFQGIITICRVTELERKGEFVATYEDKDGDLMLVGDVPWMMFVESCKRMRLMKTGDAIGL
# B2: IAA31 (Arabidopsis thaliana, UniProt Q8H174); chain MEVSNSCSSFSSSSVDSTKPSPSESSVNLSLSLTFPSTSPQREARQDWPPIKSRLRDTLKGRRLLRRGDDTSLFVKVYMEGVPIGRKLDLCVFSGYESLLENLSHMFDTSIICGNRDRKHHVLTYEDKDGDWMMVGDIPWDMFLETVRRLKITRPERY
# B3: ARF16 570-670 (Arabidopsis thaliana, UniProt Q93YR9); chain SPCSKKVHDASGLETGHCKVFMESDDVGRTLDLSVLGSYEELSRKLSDMFGIKKSEMLSSVLYRDASGAIKYAGNEPFSEFLKTARRLTILTEQGSESVVV
# B4: ARF18 482-602 (Arabidopsis thaliana, UniProt Q9C5W9); chain QKKQQTSRSRTKVQMQGIAVGRAVDLTLLKSYDELIDELEEMFEIQGQLLARDKWIVVFTDDEGDMMLAGDDPWNEFCKMAKKIFIYSSDEVKKMTTKLKISSSLENEEYGNESFENRSRG
# B5: ARF4 660-788 (Arabidopsis thaliana, UniProt Q9ZTX9); chain QSSSKRICTKVHKQGSQVGRAIDLSRLNGYDDLLMELERLFNMEGLLRDPEKGWRILYTDSENDMMVVGDDPWHDFCNVVWKIHLYTKEEVENANDDNKSCLEQAALMMEASKSSSVSQPDSSPTITRV
# B6: ARF12 500-593 (Arabidopsis thaliana, UniProt Q9XID4); chain TEIQNKQFSSSRTCTKVQMQGVTIGRAVDLSVLNGYDQLILELEKLFDIKGQLQTRNQWEIAFTDSDEDKMLVGDDPWPEFCNMVKKIFIQKRR
# B7: IAA13 (Arabidopsis thaliana, UniProt Q38831); chain MITELEMGKGESELELGLGLSLGGGTAAKIGKSGGGGAWGERGRLLTAKDFPSVGSKRAADSASHAGSSPPRSSSQVVGWPPIGSHRMNSLVNNQATKSAREEEEAGKKKVKDDEPKDVTKKVNGKVQVGFIKVNMDGVAIGRKVDLNAHSSYENLAQTLEDMFFRTNPGTVGLTSQFTKPLRLLDGSSEFVLTYEDKEGDWMLVGDVPWRMFINSVKRLRVMKTSEANGLAARNQEPNERQRKQPV
# Construct (chain): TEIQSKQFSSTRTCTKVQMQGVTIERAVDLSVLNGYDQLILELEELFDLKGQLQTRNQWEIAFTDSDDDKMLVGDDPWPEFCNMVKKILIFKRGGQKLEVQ
Molecule,positive tests
B1 (IAA15),1
B2 (IAA31),1
B3 (ARF16 570-670),0
B4 (ARF18 482-602),1
B5 (ARF4 660-788),0
B6 (ARF12 500-593),2
B7 (IAA13),1

# Set 3
# Target: ABI1, truncated, D143A, DHFR fusion (Arabidopsis thaliana)
# Technique: DHFR PCA, deep sequencing
# Sample: yeast
# Setting: methotrexate growth selection, single substitutions
# Added: (+)-ABA 0.11 µM
# Reference: wild-type fitted maximum
# Reading: higher = stronger binding
# Parent: PYL1, truncated, DHFR fusion (Arabidopsis thaliana); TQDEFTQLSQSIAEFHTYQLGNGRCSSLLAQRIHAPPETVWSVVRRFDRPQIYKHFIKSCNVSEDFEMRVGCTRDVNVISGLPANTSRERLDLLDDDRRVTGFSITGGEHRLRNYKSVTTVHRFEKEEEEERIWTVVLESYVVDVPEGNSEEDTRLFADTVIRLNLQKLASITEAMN; partner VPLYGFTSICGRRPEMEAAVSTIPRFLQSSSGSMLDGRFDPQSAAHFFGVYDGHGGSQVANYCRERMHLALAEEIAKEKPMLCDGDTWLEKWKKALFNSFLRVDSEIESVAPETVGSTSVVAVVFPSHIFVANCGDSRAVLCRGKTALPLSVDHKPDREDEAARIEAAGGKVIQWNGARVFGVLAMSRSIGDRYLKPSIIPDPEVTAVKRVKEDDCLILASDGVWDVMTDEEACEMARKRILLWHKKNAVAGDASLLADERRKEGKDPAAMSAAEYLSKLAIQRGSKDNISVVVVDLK
Change,relative binding score
R49C,29.2%
L28R,4.92%
P83R,18.8%
E67K,28.9%
F103G,-7.85%
R46C,5.4%
V40E,-2.87%
V70Y,0.613%
F15A,7.43%
H122V,-2.63%
A170F,-21.4%
P146S,7.88%
E128M,20.7%
R69V,43.9%
T6L,41.4%
V78T,25.9%

# Set 4
# Target: Prothrombin, mature alpha-thrombin (F2, Homo sapiens, UniProt P00734)
# Technique: aptamer microarray, sandwich
# Form: DNA with 2'F-ANA
# Sample: in vitro
# Tested at: 200 nM
# Setting: whole 15-mer aptamer, many near background
# Added: Cy3 exosite-II aptamer, 400 nM
# Reading: higher = stronger binding
# Strand: GGTTGGTGTGGTTGG
Modification,mean fluorescence intensity [a.u.]
2'F-ANA at 4 5 6 9 14 15,56.4
2'F-ANA at 1 4 7 9 11 14 15,48.1
2'F-ANA at 1 4 7 10 12 13 15,52.7
2'F-ANA at 2 4 6 9 12 14,104
2'F-ANA at 1 3 6 11,221
2'F-ANA at 5 6 7 8 9 10 11 14,48
2'F-ANA at 1 4 5 6 8 11 12 13,67.1
2'F-ANA at 1 3 6 7 9 10 11 13,99.5
2'F-ANA at 3 4 5 12 13,148
2'F-ANA at 1 6 7 9 10 11,52.4
2'F-ANA at 1 2 3 4 5 8 9 10 11 12 13 15,50.1
2'F-ANA at 1 4 5 7 8 9 10 14 15,46.7
2'F-ANA at 2 5 7 9 10 11 12,50.2
2'F-ANA at 1 2 3 4 5 6 8 9 10 11,49.7
2'F-ANA at 1 3 6 9 11 14,77.9
2'F-ANA at 2 5 6 7 11 14 15,51.5
2'F-ANA at 6 7 11 12 13 14 15,204
2'F-ANA at 5 11 13 14,42
2'F-ANA at 1 2 4 9 15,127
2'F-ANA at 1 2 3 5 7 8 9 10 13 14 15,55.2
2'F-ANA at 1 2 5 6 7 8 9 12 15,137
2'F-ANA at 4 7 10 11 12 14,64.8
2'F-ANA at 5 8 9 10 11 13 15,46.1
2'F-ANA at 3 4 5 13 15,91.7
2'F-ANA at 6 9 14,169

# Set 5
# Target: MAFK, bZIP domain (human)
# Technique: DHFR protein complementation
# Sample: yeast
# Setting: single substitutions, most at no-binding floor
# Reference: wild-type JUN-FOS pair
# Reading: higher = stronger binding
# Parent: JUN, bZIP domain (human); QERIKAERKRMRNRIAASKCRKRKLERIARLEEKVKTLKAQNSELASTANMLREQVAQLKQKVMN; partner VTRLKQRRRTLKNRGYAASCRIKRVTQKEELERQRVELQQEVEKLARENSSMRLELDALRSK
Change,binding fitness
L52I,-1.23 natural log
K36A,-1.36 natural log
K36N,-1.44 natural log
L52N,-1.49 natural log
E33A,-1.49 natural log
T48W,-1.43 natural log
A40E,-1.48 natural log
A29D,-1.27 natural log
L52Q,-1.51 natural log
R53D,-1.54 natural log
S43V,-1.41 natural log
T48M,-1.42 natural log
V56P,-1.5 natural log
Q55Y,-1.55 natural log
A57G,-1.48 natural log
A40S,-1.34 natural log

# Set 6
# Target: Phosphate system positive regulatory protein PHO4, full length, GST-tagged (PHO4, Saccharomyces cerevisiae, UniProt P07270, residues 1-312)
# Technique: competition protein-binding microarray
# Form: double-stranded DNA, one strand shown
# Sample: in vitro
# Tested at: 2 µM
# Setting: whole 60-bp probe, lowest competitor level
# Added: Cbf1 competitor, 0.05 µM
# Reading: higher = stronger binding
# All sequences stand within: … GTCTTGATTCGCTTGACGCTGCTG
# Residues (chain): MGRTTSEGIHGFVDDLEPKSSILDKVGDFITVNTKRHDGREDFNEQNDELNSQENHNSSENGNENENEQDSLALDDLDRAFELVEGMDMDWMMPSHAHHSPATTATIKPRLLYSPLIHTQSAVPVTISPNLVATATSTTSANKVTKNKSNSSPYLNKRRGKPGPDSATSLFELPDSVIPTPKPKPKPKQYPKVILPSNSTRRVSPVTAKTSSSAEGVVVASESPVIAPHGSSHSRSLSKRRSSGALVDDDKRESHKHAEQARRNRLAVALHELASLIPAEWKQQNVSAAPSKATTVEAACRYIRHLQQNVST
Strand,fluorescence intensity [a.u.]
CGTCCTAGTGATTGTCACCCTACTTCCATGAGGAAG,4470
CGTCCTAGCGATTGACTGGTGGGTGCCATGAGGAAG,6920
AAAGCGGTAATTTGGCGGGTGGGTGCAGATATCTAT,5190
CGCAGTGAACTTGGCCATGTGGGGCCATCCCAAGAT,10400
CTTTCCCGATCTTGGCAAGTGGGTGTAGCACATTTG,4690
GTAAAGGTAAACCATCACGTGCTTTCGAAGATAAAT,14400
CCACTACAAAACTTCCACGTTAGAAAGGTTAAGTTA,6110
GAACCATTGTCTTTGCACGTTGACACCTATGGTACT,10700
AACAAGGGCATTTTTCACGTGCCGATGAGCAGCAAG,14400
ATTTCGCCCAGAGCGCACATGATCGGGTAGATAACC,10200
CCAAATAAAAGAATGTTCGTGCAAAAAGTTGCAAAA,5960
CGGGGTTAAGTTTTTCACGTGTTATGCTTGCAGCAG,13700
CCAATTTATTGACATCACCTGGAATGCAGGCGGTGG,5040
TAATAGCTTGAAAAGCACGTGAAGGGCTTGAAGCGG,15400
TCTCCTTGCTCGTACCATGTGGTTTCATCTCAGGGT,11000
ATCCCCTCTGTAAGACACGTTGGTCCACTGTAGCTT,11800
CGTCCTAGTGATTGCATCGTGGGTGCCATGAGGAAG,11800
AAAGCGGTAATTTTTCACGTGCGTTCACATATCTAT,15800
CATCCTTTCCAACATGATGTGACGAATTAACGACTG,6950
CTAACGAAGGTTTTTCACGTGCGATACAAGCCAAGT,12600
TTGCTAACGGATTAAAACGTGTGGAATTATTGTTGC,11600
CAGGGGGAGCAAGTGCATGATCAGAAGGACCAATCT,5520
CATACCCAACCTTGATGAGTGGGTGAAGATATTTGT,4250
CGGAGAGGACCTACCCACGTGCCAGAATTGTTTCAA,17800
CCATTCCAACCAATGGATGTGACGCTCCAAGAGAAA,3730
